# Assay results collected from several papers.
# A part holds a random share of what one study measured.

# Study 1
# Target: RNA binding protein fox-1 homolog 2, RRM domain, GST-SBP tag (RBFOX2, Homo sapiens, UniProt O43251-10, residues 100-194)
# Method: RNA Bind-n-Seq
# Molecule type: RNA
# Matrix: in vitro
# Concentration: 365 nM
# Setting: natural RNA segment, single round, ends assumed
# Relative to: no-protein control
# Reading: higher = stronger binding
# All sequences stand within: GGGAGUUCUACAGUCCGACGAUC … UGGAAUUCUCGGGUGCCAA
# Residues (chain): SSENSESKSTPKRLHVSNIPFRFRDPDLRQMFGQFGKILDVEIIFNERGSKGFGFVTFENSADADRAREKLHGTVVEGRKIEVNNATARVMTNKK
Oligonucleotide,RBNS enrichment (R)
AGAGCUCUAUGGUGUUCCUGAAGACACAAAGGAGCAAGAGACCAGCCAUGUGGAGAACAAUGGUAUUAAUCCAUACUGGGGGGAGACUUUCUAUUUCCGGCUCCAGGUAC,0.343
AAAGAACUUAGUCAUCCCUUCCACCUCCUACUGUGAAGAACAGACCCUGGGUCCCACACUGAAAUCCCCUCUAGUCACCCAUUCCCACCCCCCAGGGAGCUGCCUCCCAG,0.415
UUUAUUUUUCUACUUGGAACUGUACACAUUUGAAAAGUACCCAAAUAAACCAGAAGCUUUAUCGUUGCUGGGCCAGCCUUUGCCUUAGUGUGGAGGCUGGGGGCGGUGGG,0.222
UGUACCCUGUACACGUGUUCAUGCUGUGUCUGGCUCUCAUCUGCACAAUCGUGCAUAGAAUUGCCUCAAGUCCUGGUGAGAGAGAUGCCGUGGUACUUUUCCAUUUAGAU,0.364
GAUCUUCGGAUCGGCCACCCUCGCCCCUCGCACCCCAGCCCAGGGCGGCGGGGACUCCGAGAGCCCCGGAGAGAACGUGGCCCAGCCCUGGAGGGCAGGCGGCCACUCCC,0.186
UGAAGGCAAAUAUAAGCUGGGAAAAAAGUUUUGAUGAAAUUCUUGAAGUUCAUGGUGAUCAGUGCAAUUGACCUUCUCCCUCACUCCUGCCAGUUGAAAAUGGAUUUUUA,0.374
UUGGUCCUCUCCUUCCUGGAAGGCUUCCUUUUAUGUUUUGUUUUAAUCCCAAAUGUCUGAAUGUUUUGCAGUGUGUAGGGGUUUGAGCCCCUUGUUCAUUCUCCUUCCUU,0.712
CAAACCAAUUGCCUCAGGCUAUCUGUGUAAGGUGUCUAUGUGAAACCUAAAUGAAUUUCAUGAUUAGAGGUGCUCCCACCUGCCAAAUAAUCCCGCCACAAAUAUGCAAA,0.407
UGUAGUCCCAGAGCCCGUCACAGCCCUUGUGGUUCAAGCUUCUUCUGCCUCUUUAGGAAGUGAGGGUUUCUUGUUCUCCUUUAAAAAUCAGUCUCUAGACUACGGCCAUC,0.224
UGAUUCCCACAGAAAACGUCCUAAGACUUCUAGUCGUCAAGAAGACCUGAAGCAUCCUUGACCUUCAUUUUGCUCAGGACUAUUCACUGUUUCCCUUCCUUGAGGAAGCC,0.27
ACAGGUGUUGGGGGCAGCCUGUAUUUUACCCUAGGGGCAGGUCUGCAUGGUGACCCCACAUUGCACUGGUAAACCAUUUGAGUCCCACUCUUCAUCCUGGAAGUGGGAAC,0.882
CACCCGGCCUCUUCGCCUUUCCCACCCUCCUGCCCCACACUCCCCGCCUUAGAGCCUCGUCCCUCCCUCACUGAAGGACCUGAGCUGGCCAGGCCCUGAGAGUCUGGUCU,0.649

# Study 2
# Target: Fragile X messenger ribonucleoprotein 1, C-terminal low-complexity region (Fmr1, Mus musculus, UniProt P35922)
# Method: RNA Bind-n-Seq
# Molecule type: RNA
# Matrix: in vitro
# Concentration: 200 nM
# Setting: whole 134-nt RNA, ends assumed
# With: 150 mM LiCl
# Relative to: input library
# Reading: higher = stronger binding
# All molecules: 7-deaza-guanosine replaces G
# All sequences stand within: GGGAGUUCUACAGUCCGACGAUC … UGGAAUUCUCGGGUGUCAAGG
Oligonucleotide,log2 enrichment
ACCAUGCAGGUGGGCAUCUUUGGGAAGUGGGGCAAGGGGGGGAUAGGGAGGGGGGUAACACUUUGGGAAUAGGUGGUCCCAGGUCGUUUC,1.46
UUUCCCCUGGAGGGCGCCUCCAUCCUUGGAGGCCUAGUGCCGUCGGAGAGAGAGCGGGAGCCGCGGACAGAGACGCGUGCGCAAUUCGGA,-2.42
UAACUUUAGAGGAGGAUCUGAUGGUUAUGGCAGUGGACGUGGAUUUGGGGAUGGCUAUAAUGGGUAUGGAGGAGGACCUGGAGGUGGCAA,0.255
UGGCCCUGGUGGCAUGCGGGGAGGAAGAGGUGGCCUCAUGGAUCGUGGUGGUCCCGGUGGAAUGUUCAGAGGUGGCCGUGGUGGCGACAG,-0.583
GUCCUGUGCUACACAUCGUAUGUACCGAAUCGGGGUUUUUGGGUUUUUGGUUUUUGGGAAAGUAUUAUGUUACGCCGUUCGGAUCUGCAC,-1.47
CCUCAAGUCCUGUGCUACACAUCGUAUGUACCGAAUCGGGCGGGCGGGCGGGAAAGUAUUAUGUUACGCCGUUCGGAUCUGCACUUCCAG,-0.147
UUAAUGAUAUAAGUAGAGAGUAGUAUCCUGGUGGAGUUGUAACCACUAUUUUUGUUUUCUAGAUCCCUAUGGUUCAGGAGGCCAGAAAUU,-1.81
UCCUGUGCUACACAUCGUAUGUACCGAAUCAAACCCCCAAAUUUUUAAAUUUUUUUAAAAAAGUAUUAUGUUACGCCGUUCGGAUCUGCA,1.39
AAGUCCUGUGCUACACAUCGUAUGUACCGAAUCGGGCCCCGGCCCCGGGCCCCGGGAAAGUAUUAUGUUACGCCGUUCGGAUCUGCACUU,-3.2
AAGUCCUGUGCUACACAUCGUAUGUACCGAAUCGGUUUGGUUUUUUUGGAAAAAGGAAAGUAUUAUGUUACGCCGUUCGGAUCUGCACUU,-2.41
AGUCCUGUGCUACACAUCGUAUGUACCGAAUCGGGGAAAAAGGAAAAAGGAAAAAGGGAAAGUAUUAUGUUACGCCGUUCGGAUCUGCAC,-0.758

# Study 3
# Target: RING finger protein unkempt homolog, zinc fingers 1-6, GST-SBP tag (UNK, Homo sapiens, UniProt Q9C0B0, residues 30-357)
# Method: RNA Bind-n-Seq
# Molecule type: RNA
# Matrix: in vitro
# Concentration: not given
# Setting: RNA with constant flanks, ends assumed
# Relative to: input RNA pool
# Reading: higher = stronger binding
# All sequences stand within: GGGAGUUCUACAGUCCGACGAUC … CAACAGAGGAUUGAGCAUCA
# Target sequence (chain): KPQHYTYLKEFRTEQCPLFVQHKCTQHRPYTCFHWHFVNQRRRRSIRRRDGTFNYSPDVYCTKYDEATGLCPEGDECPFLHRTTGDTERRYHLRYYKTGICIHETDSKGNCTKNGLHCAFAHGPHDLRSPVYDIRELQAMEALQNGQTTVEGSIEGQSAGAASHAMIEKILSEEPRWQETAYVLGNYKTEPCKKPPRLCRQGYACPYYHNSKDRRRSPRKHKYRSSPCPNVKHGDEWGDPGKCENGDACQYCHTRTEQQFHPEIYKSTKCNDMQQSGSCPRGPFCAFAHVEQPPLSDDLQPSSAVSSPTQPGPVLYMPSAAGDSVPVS
Oligonucleotide,bound/input enrichment
GCAGAACUCCUAAAAAAUGCAGAUGAAUUAGUCAAACAGAAAAUUCAUCCCACAUCAGUUAUCCGUGGCUAUCGACUUGCUUGCAAGGAAGCAGUGCGUUAUAUCAAUGAAAACCUAAUU,0.069 ratio
AAUAAGCAUGUUAUGUAUAUUGUCUCGUGUUUUUAUUUUUACACCAUAUUGUAUUACACUUUCCGUAUUCACCAGCAUAAUCACUGUCUGCCUAAAAUAUGCAACUCUUUGCAUUACAAU,0.345 ratio
AUGAGAAACAGUAUCUUAGCCCAAGUUCUGGAUCAGUCGGCCCGGGCCAGGUUAAGUAACUCCGCACUUGUAAAGCCUGAAAAAACUAAAGCAGUAGAGAAUUACCUUAUACAGAUGGCA,0.533 ratio
AGGUUACUGAUGCAUCACAUCAGAGAUUGUUUACCAGAGUUGAAAACAAGAAUAAAUGUUCCCGCUGCUCAGUAUCAGUCUCUUCUAAAUAGCUACGGUGAACCCGUGGAUGAUAAAAGU,0.0995 ratio
GACAUUUUGGGUGUUAAGAAGGAAAUGAUCCGGCUAGAUGAAGUUCCCAAUCUGAGUUCCUCCGUAUCCAAUUUCGAUCAGCAGCAGCUUGCUAACUUCUGCAGGAUCCUGGCUGUCACC,0.158 ratio
GAGAUUGACUGCACCAUGCUCACCCCUGAGCCAGUUUUAAAGACCUCUGGCCACGCCGACAAAUUUGCUGACUUCAUGGUGAAGGACGUGAAGAACGGAGAGUGCUUCCGAGCAGACCAC,0.109 ratio
GAUUUUAAUUGGCAGGGGAUAAUGGUAGCUUUCAAAUCAUUGGAAGGGGAAAAGGAUGUCUCCGGAUUAUUUUCUUUCUUGUAGUAGUUGAGACAGAGCUCUUAUUUACUGUAAUGCUAA,0.368 ratio
UCCGCACUGGAGAACAUGCUUUUUUUCAACAGUCCUUCUGUGGGCCCCAAUGCUCCCAAGACCGAGGACUUGAAAUGGCAUUCUGCAUUCUUCAGGAAACAAAUGGGCACUUCCUUGGUU,0.144 ratio
UGAGUGAGCAGAUGAUUGAAUAUUGAUGUCAGCAUCCUUGAACACACUCAGAUGAGCAACACCGAGCUUCUGCUUCUAUUUAAAAUGAUGCUGGGUUUGAUUGUGGUCCGAAGCUUUGAA,0.0573 ratio
CAGGUACAAGAGCAGAAGGCACAUCUUAGAGCUGCACAAGACCGUGUCCUUUCCCCCGAAACCCGUGUCAAUGAAUUAAAUAGUCAAUUAAAUGAAAGCAAGGAGAAGGUCUCCCAGCUU,2.81 ratio
GGCUAUCUGGUAUCUGUAGAUGGCUACAUGAACAUGCAGCUUGCAAAUACAGAAGAAUACACCGAUGGAGCUUUGUCUGGACAUCUGGGUGAAGUUUUAAUAAGGUGUAAUAAUGUCCUU,0.187 ratio

# Study 4
# Target: Histone acetyltransferase KAT6A, winged helix 1, GST fusion (KAT6A, Homo sapiens, UniProt Q92794, residues 1-85)
# Method: protein binding microarray
# Molecule type: double-stranded DNA, one strand shown
# Matrix: in vitro
# Concentration: not given
# Setting: 8-mer, flanks averaged, mean of 2 arrays, mostly near background
# Relative to: not given
# Reading: higher = stronger binding
# Residues (chain): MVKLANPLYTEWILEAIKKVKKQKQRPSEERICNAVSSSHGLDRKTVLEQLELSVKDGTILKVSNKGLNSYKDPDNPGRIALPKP
Oligonucleotide,E-score
GAGTAAAA,-0.095
GCGCCTAA,0.223
ATTTTGTC,-0.201
CGGAGTTA,0.129
TATCTAAA,0.104
CCCGGTGC,0.245
GAAACGAC,-0.0598
ACACCATG,-0.0927
ACGCTTGC,0.154
ATATCGAT,-0.17
GGACGATA,-0.0858
AATGGACA,-0.203
AACTCAGG,-0.229
CGCCGTAG,0.427
CTGGATCA,-0.116
AGCGGCGG,0.458
CTCTTGAA,-0.251
CGACGAGA,-0.196
TCAGGCAA,-0.293
CTACACGC,-0.00957
AACCATTA,-0.08
GGACACCA,-0.224
AGTAAAAG,-0.153
GCCGCAAC,0.329
TATCGAAA,0.00492

# A few entries again (study 2):
Oligonucleotide,log2 enrichment
UUUCCCCUGGAGGGCGCCUCCAUCCUUGGAGGCCUAGUGCCGUCGGAGAGAGAGCGGGAGCCGCGGACAGAGACGCGUGCGCAAUUCGGA,-2.42
UAACUUUAGAGGAGGAUCUGAUGGUUAUGGCAGUGGACGUGGAUUUGGGGAUGGCUAUAAUGGGUAUGGAGGAGGACCUGGAGGUGGCAA,0.255
UGGCCCUGGUGGCAUGCGGGGAGGAAGAGGUGGCCUCAUGGAUCGUGGUGGUCCCGGUGGAAUGUUCAGAGGUGGCCGUGGUGGCGACAG,-0.583
GUCCUGUGCUACACAUCGUAUGUACCGAAUCGGGGUUUUUGGGUUUUUGGUUUUUGGGAAAGUAUUAUGUUACGCCGUUCGGAUCUGCAC,-1.47
CCUCAAGUCCUGUGCUACACAUCGUAUGUACCGAAUCGGGCGGGCGGGCGGGAAAGUAUUAUGUUACGCCGUUCGGAUCUGCACUUCCAG,-0.147
UUAAUGAUAUAAGUAGAGAGUAGUAUCCUGGUGGAGUUGUAACCACUAUUUUUGUUUUCUAGAUCCCUAUGGUUCAGGAGGCCAGAAAUU,-1.81
UCCUGUGCUACACAUCGUAUGUACCGAAUCAAACCCCCAAAUUUUUAAAUUUUUUUAAAAAAGUAUUAUGUUACGCCGUUCGGAUCUGCA,1.39
AAGUCCUGUGCUACACAUCGUAUGUACCGAAUCGGGCCCCGGCCCCGGGCCCCGGGAAAGUAUUAUGUUACGCCGUUCGGAUCUGCACUU,-3.2
AAGUCCUGUGCUACACAUCGUAUGUACCGAAUCGGUUUGGUUUUUUUGGAAAAAGGAAAGUAUUAUGUUACGCCGUUCGGAUCUGCACUU,-2.41
AGUCCUGUGCUACACAUCGUAUGUACCGAAUCGGGGAAAAAGGAAAAAGGAAAAAGGGAAAGUAUUAUGUUACGCCGUUCGGAUCUGCAC,-0.758
